Measured values from different studies.
Protocols differ between the studies behind these lines. “And” joins repeats or separate records; there may be more than shown. ± gives the spread as reported.
Chain of UniProt O60656 (whole entry, looked up): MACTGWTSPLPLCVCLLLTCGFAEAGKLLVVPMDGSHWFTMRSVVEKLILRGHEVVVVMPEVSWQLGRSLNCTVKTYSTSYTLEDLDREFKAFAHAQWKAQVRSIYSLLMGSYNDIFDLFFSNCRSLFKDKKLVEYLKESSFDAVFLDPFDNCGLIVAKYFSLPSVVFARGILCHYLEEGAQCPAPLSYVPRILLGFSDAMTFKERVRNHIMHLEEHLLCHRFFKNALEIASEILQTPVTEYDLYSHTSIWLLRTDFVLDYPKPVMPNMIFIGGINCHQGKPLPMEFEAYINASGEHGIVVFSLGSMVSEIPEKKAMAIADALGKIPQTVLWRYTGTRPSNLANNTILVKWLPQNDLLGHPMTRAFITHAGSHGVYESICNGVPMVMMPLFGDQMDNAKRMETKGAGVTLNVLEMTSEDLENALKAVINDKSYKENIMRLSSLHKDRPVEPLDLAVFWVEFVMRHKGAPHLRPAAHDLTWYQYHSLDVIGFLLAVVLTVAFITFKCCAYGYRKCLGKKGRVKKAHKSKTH

For `KSPNPRF (Cy5.5-labelled)`, the Kd was 21 nM (human HER2; flow cytometry; peptide, HT-29; 1 h, 4 °C).
`CC(C)N(CCC1CC2CN(C(=O)Nc3ccc(NC(=O)C(C)(C)C)cc3)CC2C1)C[C@H]1O[C@@H](n2cnc3c(N)ncnc32)[C@H](O)[C@@H]1O` (stereo partly shown) — result for “H3K79me2 level ratio”: 2.19 (human DOT1L R231Q; inhibitor, western blot, item: H3K79me2 over histone H3; H460 DOT1L R231Q; concentration not given; relative to: cpd over SGC0946).
For `O=c1ccn([C@@H]2O[C@H](COP(=O)(O)OP(=O)(O)OP(=O)(O)O)[C@@H](O)[C@H]2O)c(=O)[nH]1`, the potency shift was about 1000 fold (P2Y2 receptor (human) RGE mutant; FAK phosphorylation, agonist; 1321N1 transfected; 5 min, 37 °C; relative to: RGE mutant over wild type).
For `GKKVITAFCEGLK`, “relative concentration for IL-2 production” read 10 to 100 fold (3.L2 T cell receptor; agonist; peptide, 3.L2.12 T cell hybridoma; concentration not given; relative to: over Hb(64-76) peptide).
For `O=C1NC(=O)C(c2ccccc2)(c2ccccc2)N1`, uptake read “no effect” (MCT5 (rat); substrate, Xenopus oocytes; 9.09 µM, 20 °C; relative to: water-injected oocytes).
For `CCN(CC)CCCN(C[C@H]1O[C@@H](n2cnc3c(N)ncnc32)[C@H](O)[C@@H]1O)C1CCN(Cc2nc3ccc(NC(=O)C(C)(C)C)cc3[nH]2)CC1`, “H3K79me2 level ratio” read 1.67 (human DOT1L R231Q; inhibitor, western blot, item: H3K79me2 over histone H3; H460 DOT1L R231Q; concentration not given; relative to: cpd over SGC0946).
With `CC(C)(C)c1cc(C(C)(C)C)c(NC(=O)c2c[nH]c3ccccc3c2=O)cc1O` the CFTR activity was 44.2 ± 3.3% (CFTR R352Q human; short-circuit current, potentiator; CFBE; 14.44 µM, with: forskolin 20 µM; relative to: PKA-activated wild type).
For `GKKVITAFAEGLK`, the koff was 1.12 to 4.61 s⁻¹ (single-chain TCR 3.L2 mouse; surface plasmon resonance; peptide; with: pMHC-II monomer).
`COc1cc(C=O)cc(OC)c1O`: “lowest inhibitory concentration” at least 0.1 µM (UGT (rat); 4-MU glucuronidation, inhibitor; rat kidney microsomes).
`COC(=O)C1CCN(CCCN(C[C@H]2O[C@@H](n3cnc4c(N)ncnc43)[C@H](O)[C@@H]2O)C2CCN(Cc3nc4cc(NC(=O)C(C)(C)C)ccc4[nH]3)CC2)CC1` — result for “H3K79me2 level ratio”: 1.35 (human DOT1L R231Q; inhibitor, western blot, item: H3K79me2 over histone H3; H460 DOT1L R231Q; concentration not given; relative to: cpd over SGC0946).
`Cc1ccc(Cn2cnc3cc(/C=C/C(=O)NO)ccc3c2=O)cc1` gave an IC50 of 44 nM and 41 to 44 nM (histone deacetylase; enzyme activity, inhibitor; HeLa nuclear extract).
`OC[C@H]1O[C@@H](Oc2cc3c(O)cc(O)cc3[o+]c2-c2ccc(O)c(O)c2)[C@H](O[C@@H]2OC[C@@H](O)[C@H](O)[C@H]2O)[C@@H](O)[C@@H]1O` has a CD value of over 20 µM (NAD(P)H quinone oxidoreductase, mouse; enzyme induction, inducer; Hepa-1c1c7; concentration doubling activity).
For `Cc1nnc2sc(C(=O)NCc3ccc(S(=O)(=O)C(F)(F)F)cc3)c(N)c2c1C`, the Ki was over 30000 nM (off-target panel; radioligand binding; all targets except adenosine transporter).
The CD value of `O=c1c(O[C@@H]2O[C@@H](CO)[C@H](O)[C@H]2O)c(-c2ccc(O)c(O)c2)oc2cc(O)cc(O)c12` is reported as over 20 µM (NAD(P)H quinone oxidoreductase, mouse; enzyme induction, inducer; Hepa-1c1c7; concentration doubling activity).
With `O=C(/C=C/c1ccc2c(=O)n(CC3CCCCC3)cnc2c1)NO` the IC50 was 124 ± 4 nM (histone deacetylase; enzyme activity, inhibitor; HeLa nuclear extract).
The steady-state inhibition of `Cn1c(=O)oc2ccc(-c3ccc(C[C@@H](C#N)NC(=O)[C@@H]4CNCCCO4)cc3)cc21` is reported as 49% (neutrophil elastase; enzyme activity, inhibitor; human, whole blood; oral, 25 mg once daily, with: zymosan).
For `O=C(NO)c1ccc(NC(=O)[C@@H](NC(=O)c2ccc3ccccc3c2)c2ccccc2)cc1`, the IC50 was 14.3 ± 0.9 nM (HDAC (HeLa nuclear extract); enzyme activity, inhibitor).
The CD value of `O=Cc1ccc(CO)o1` is reported as 18.7 ± 2.9 µM (NAD(P)H quinone oxidoreductase, mouse; enzyme induction, inducer; Hepa-1c1c7; concentration doubling activity).
For `NCC(=O)COP(=O)(O)O`, the EC50 was 4200 nM (rhodopsin wild type-Rluc fusion; reporter gene; HEK293; 24 h).
`MRYAW` — result for “conversion to cyclic peptide”: 21% (cytochrome P450 Blt (Micromonospora sp. MW-13); substrate, LC-MS; peptide; overnight, 30 °C, P450 0.5 µM, with: NADH 2 mM).
`CC[C@H]1OC(=O)[C@H](C)[C@@H](O[C@H]2C[C@@](C)(OC)[C@@H](O)[C@H](C)O2)[C@H](C)[C@@H](O[C@@H]2O[C@H](C)C[C@H](N(C)C)[C@H]2O)[C@](C)(O)C[C@@H](C)[C@@H]2N[C@@H](COCCOC)O[C@H]([C@H]2C)[C@]1(C)O` gave a Kd of 1.6 ± 0.5 nM (Escherichia coli 70S ribosome; binding, fluorescence anisotropy competition; 25 °C, with: BODIPY-erythromycin).
For `CC1CCN(CCCN(C[C@H]2O[C@@H](n3cnc4c(N)ncnc43)[C@H](O)[C@@H]2O)C2CCN(Cc3nc4cc(NC(=O)C(C)(C)C)ccc4[nH]3)CC2)CC1`, “H3K79me2 level ratio” read 1.23 (human DOT1L R231Q; inhibitor, western blot, item: H3K79me2 over histone H3; H460 DOT1L R231Q; concentration not given; relative to: cpd over SGC0946).
`NCC(=O)O` has a Km of 4100 µM (system A amino acid transporter, mouse; Na+-dependent uptake, substrate; Ehrlich ascites cells; 1 min, pH 7.4, with: 107 mEq/L Na+).
For `CC1=C(/C=C/C(C)=C/C=C/C(C)=C\C(=O)O)C(C)(C)CCC1`, the EC50 was under 10000 nM (thyroid hormone receptor, rat; reporter gene, agonist, luciferase reporter, qHTS; GH3.TRE-Luc).
The Vmax of `O=c1ccc2ccccc2o1` is reported as 8.7 ± 1.9 min⁻¹ (CYP2A6 human; 7-hydroxylation, substrate; human liver microsomes; CYP2A6 added 54 pmol/mg, ratio 0.125).
For `CC(=O)c1c(O)cc(O)cc1O[C@@H]1O[C@H](CO)[C@@H](O)[C@H](O)[C@H]1O`, the CD value was over 20 µM (NAD(P)H quinone oxidoreductase, mouse; enzyme induction, inducer; Hepa-1c1c7; concentration doubling activity).
`MSYLH-OH` — result for “conversion to cyclic peptide”: 15% (cytochrome P450 Blt (Micromonospora sp. MW-13); substrate, LC-MS; peptide; overnight, 30 °C, P450 0.5 µM, with: NADH 2 mM).
For `CC(=O)OCc1ccc(C=O)o1`, the CD value was over 20 µM (NAD(P)H quinone oxidoreductase, mouse; enzyme induction, inducer; Hepa-1c1c7; concentration doubling activity).
`C=CCc1ccc(O)c(OC)c1` gave an inhibition of 77% (anti-eugenol mouse monoclonal antibody; binding, indirect competitive ELISA; 100 ng/mL).
Under “lowest inhibitory concentration”, `COc1cc(C=O)ccc1O` is recorded as at least 100 µM (UGT (rat); p-NP glucuronidation, inhibitor; rat kidney microsomes).
With `Nc1nc2c(ncn2[C@@H]2O[C@@H]3COP(=O)(O)O[C@H]3[C@H]2O)c(=O)[nH]1` the Hill coefficient was 2.55 and 2.1 (cone cyclic nucleotide-gated channel, Morone saxatilis; ion current, agonist, inside-out patch clamp; after EDTA/EGTA, -40 mV, with: calmodulin 200 nM, Ca2+ 20 µM, Mg2+ 100 µM).
For `Cc1ncsc1-c1ccc(CNC(=O)[C@@H]2C[C@@H](O)CN2C(=O)[C@@H](NC(=O)CCCNC(=O)c2ccc(-c3cnc(NCc4ccco4)n4cnnc34)cc2)C(C)(C)C)cc1`, the DC50 was 300 ± 190 nM (EZH2, human; degrader, western blot; HeLa; 24 h).
For `CC(C)N(CCC1CC2CN(C(=O)Nc3ccc(Br)cc3)CC2C1)C[C@H]1O[C@@H](n2cnc3c(N)ncnc32)[C@H](O)[C@@H]1O` (stereo partly shown), “H3K79me2 level ratio” read 2.13 (human DOT1L R231Q; inhibitor, western blot, item: H3K79me2 over histone H3; H460 DOT1L R231Q; concentration not given; relative to: cpd over SGC0946).
The CD value of `O=c1c(O[C@@H]2O[C@H](CO)[C@H](O)[C@H](O)[C@H]2O)c(-c2ccc(O)c(O)c2)oc2cc(O)cc(O)c12` is reported as 19.2 ± 2.8 µM (NAD(P)H quinone oxidoreductase, mouse; enzyme induction, inducer; Hepa-1c1c7; concentration doubling activity).
For `C[C@H](NC(=O)[C@H](CC(N)=O)NC(=O)[C@H](Cc1ccc(O)cc1)NC(=O)[C@H](CCC(=O)O)NC(=O)[C@H](CS)NC(=O)[C@H](CC(=O)O)NC(=O)[C@H](C)N1C/C=C/CCC(=O)N[C@@H]([C@@H](C)O)C(=O)N[C@@H](C)C1=O)C(N)=O`, the inhibition was 0 ± 3% (HIF-1α; VEGF transcription, qRT-PCR, item: VEGF mRNA; HeLa; 1 µM, 12 h, with: deferoxamine-mimicked hypoxia).
The EC50 of `CC(=O)OC(CC(=O)O)C[N+](C)(C)C` (stereo not shown) is reported as 3400 nM (rhodopsin wild type-Rluc fusion; reporter gene; HEK293; 24 h).
`COC(=O)c1ccc(O)c(O)c1` gave a CD value of over 20 µM (NAD(P)H quinone oxidoreductase, mouse; enzyme induction, inducer; Hepa-1c1c7; concentration doubling activity).
`CC(O)CN` (stereo not shown) gave an EC50 of 920 nM (rhodopsin wild type-Rluc fusion; reporter gene; HEK293; 24 h).
`TRSSRAGLQWPVGRVHRLLRK-NH2 (C-amide)`: “CD slope at 272 nm” -0.22 ± 0.016 (15 bp duplex DNA; DNA binding, near-UV circular dichroism; peptide; room temperature, with: 1.66 µM DNA, peptide titrated).
`O=C(O)c1ccc(Cl)c(N2C(=O)c3ccc4c(=O)n5c6ccc([N+](=O)[O-])cc6nc5c5ccc(c3c45)C2=O)c1` — result for “NGF-induced TrkA phosphorylation”: “decreased” (TrkA; western blot; PC-12; 10 µM, 15 min, with: NGF 50 pM).
`CC(C)(C)C(=O)Nc1ccc(NC(=O)N2CC3CC(N(CC(=O)NC4CC4)C[C@H]4O[C@@H](n5cnc6c(N)ncnc65)[C@H](O)[C@@H]4O)CC3C2)cc1` (stereo partly shown) — result for “H3K79me2 level ratio”: 1.22 (human DOT1L R231Q; inhibitor, western blot, item: H3K79me2 over histone H3; H460 DOT1L R231Q; concentration not given; relative to: cpd over SGC0946).
`CCCCCCCCCCCCCCCC(=O)N[C@@H](CCCNC(=N)N)C(=O)N[C@@H](C)C(=O)N[C@@H](CC(C)C)C(=O)N[C@@H](CCC(N)=O)C(=O)N[C@@H](CCCCN)C(=O)N[C@@H](CCCNC(=N)N)C(=O)N[C@@H](CC(C)C)C(=O)N[C@@H](CCCNC(=N)N)C(=O)N[C@@H](CCC(=O)O)C(=O)N1CCC[C@H]1C(=O)N[C@@H](CCC(=O)O)C(=O)N[C@@H](CCCCN)C(=O)N[C@@H](CCC(N)=O)C(=O)N1CCC[C@H]1C(=O)N[C@@H](CCCCN)C(=O)N[C@@H](CC(C)C)C(=O)N[C@@H](CCC(N)=O)C(=O)N[C@@H](CCCNC(=N)N)C(=O)N[C@@H](C)C(=O)N[C@@H](CCC(N)=O)C(=O)N[C@@H](C)C(N)=O`: inhibition “inhibited” (PAR4 human; platelet aggregation; human platelets; 3 to 10 µM, 2 min preincubation, with: AYPGKF 160 µM).
`CC(C)(C)C(=O)Nc1ccc2[nH]c(CN3CCC(N(CCC(=O)N4CCS(=O)(=O)CC4)C[C@H]4O[C@@H](n5cnc6c(N)ncnc65)[C@H](O)[C@@H]4O)CC3)nc2c1`: “H3K79me2 level ratio” 1.69 (human DOT1L R231Q; inhibitor, western blot, item: H3K79me2 over histone H3; H460 DOT1L R231Q; concentration not given; relative to: cpd over SGC0946).
The CD value of `O=Cc1c(O)cc(O)cc1O[C@@H]1O[C@H](CO)[C@@H](O)[C@H](O)[C@H]1O` is reported as over 20 µM (NAD(P)H quinone oxidoreductase, mouse; enzyme induction, inducer; Hepa-1c1c7; concentration doubling activity).
`CCN1CCN(C(=O)CN(C[C@H]2O[C@@H](n3cnc4c(N)ncnc43)[C@H](O)[C@@H]2O)C2CCN(Cc3nc4ccc(NC(=O)C(C)(C)C)cc4[nH]3)CC2)CC1`: “H3K79me2 level ratio” 0.937 (human DOT1L R231Q; inhibitor, western blot, item: H3K79me2 over histone H3; H460 DOT1L R231Q; concentration not given; relative to: cpd over SGC0946).
`UGT1A9 (Homo sapiens, UniProt O60656)` has a Km of 91.8 µM (CC(C)(c1ccc(O)cc1)c1ccc(O)cc1; steady-state kinetics; pH 7.4, 37 °C).
